Measurements pooled from the literature.
Parts stem from different laboratories: compare values within a part only. Positions count from the first letter of the parent shown.

Set 1 — technique: DHFR PCA, deep sequencing; medium: yeast; together with: (+)-ABA 0.39 µM; reference: wild-type fitted maximum; direction: higher = stronger binding
Target: ABI1, truncated, D143A, DHFR fusion (Arabidopsis thaliana)
Notes: methotrexate growth selection, single substitutions
Starting sequence: PYL1, truncated, DHFR fusion (Arabidopsis thaliana); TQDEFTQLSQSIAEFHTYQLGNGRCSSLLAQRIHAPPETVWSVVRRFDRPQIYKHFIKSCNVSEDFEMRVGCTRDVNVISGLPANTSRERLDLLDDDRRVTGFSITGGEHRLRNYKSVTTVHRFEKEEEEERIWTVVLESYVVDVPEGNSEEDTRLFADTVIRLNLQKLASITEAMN
Substitution | relative binding score [%]
H16V | -1.73
T73D | 0.171
G148M | -19.4
F15R | -7.75
V145D | 1.65
L82R | 5.01
R88Q | 46.6
D3T | 36.3
S59E | 46.9
T135C | 22.3
S150N | 28.3
Q19R | 41.5
S140G | 4.64
G21M | 30.9
L156A | 36.1
F124Y | 35.8
S104P | 1.46
V100Q | -8.2

Set 2 — technique: RNA Bind-n-Seq; molecule type: RNA; medium: in vitro; tested at: 365 nM; reference: no-protein control; direction: higher = stronger binding
Target: RNA binding protein fox-1 homolog 2, RRM domain, GST-SBP tag (RBFOX2, Homo sapiens, UniProt O43251-10, residues 100-194)
Notes: natural RNA segment, single round, ends assumed
Constant ends, left off below: GGGAGUUCUACAGUCCGACGAUC … UGGAAUUCUCGGGUGCCAA
Residues (chain): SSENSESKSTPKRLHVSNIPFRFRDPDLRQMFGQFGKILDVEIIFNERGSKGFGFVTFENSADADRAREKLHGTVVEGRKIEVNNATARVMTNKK
Strand | RBNS enrichment (R)
GUCUUUUGAUAUAUUCUAAGCUAUCCUCCUUCCCCUCCUUGGUUACAGGUGUACUCUGCCAUGUGUAGCUCUUAAAACGGCCCAUGGUACCUACUAAGCAGAGCAAGGCC | 0.257
CUUGAGGGCUGUGCCAAUCCUAGUGAACCAAAAUGCAAACAACUCACACAAGUGAAAAGCUCCCUGCUUUGAAAACAGGACAUGUUGACAGGCAGCAUGGUAUGUUUUUA | 0.872
ACUGUGGGGAAUGAGGCAUCUUUUAGCAAGAGCUCUCACCAAUUGUAGAUUGGUGUGAAUUGCUAAGGGAAAAACCUUAUGCAGAGAAAAGUUUUUGACUGGAAAUACAC | 0.435
UUGCUGUCACUUUGGCGAGGGAGUGGAUAUAGGGCAUGUCACAAAAGAACAAAAUAACCCGACCUUUAUUGCUGGGAGCUGGCUUCUGUCCCUUUCUUCCCCCCCCCACG | 0.474
GGAUAGGCUUUUGCAAAUAUAUCAGAUAAAUUUUUUGUUUCUUGUUUAUUUUUAGGUUAUUUUCUUGGAAGGUUGGGAAAAGAUGUUUGUUUUAACAGGUCAUGUACUAC | 0.9
CAUGAUUGAUGGAUGUUAAAGUCUAGCCUGAUGAGAGGGGAAGUGGUGGGGGAGACAUAGCCCCACCAUGAGGACAUACAACUGGGAAAUACUGAAACUUGCUGCCUAUU | 0.76
AGGCUGCUGCCUUCCCAGAGCCUGGAGGCAGCUCUGCUGUUCAGCCCCAAACUUUGUUUACACUGCUAGGGAAGGAGGAGCUCCGGCAAGGGAAUAACUAGGCUGGUUAA | 0.394
CGUAUAACCAUCCUUCGGCCAGCCCCGGUAGGCAGGGGAUGAGUCAUUCCAGGUCGGCAUCCUCCGGCAAUGGCAGCUGACCCUAUAUGGCUCUGUGUGGAGUGCAGUAG | 0.206

Set 3 — target: CCNE1, cyclin fold, Cln2 fusion (human); technique: yeast growth competition, sequencing; medium: yeast; notes: strong parent motif; reference: not given; direction: higher = stronger binding
Starting sequence: CDC25A docking peptide (human); PPHRRRLLFACSP
Substitution | normalised enrichment score
PPHRRRLLRACSP [F9R] | 1.47
PPHRRRLLFACCP [S12C] | 1.64
DPHRRRLLFACSP [P1D] | 1.16
PPHRRRLLFALSP [C11L] | 1.28
PPHRRRWLFACSP [L7W] | 1.11
PPHRRRLLVACSP [F9V] | 0.617
PPHRDRLLFACSP [R5D] | -0.194
GPHRRRLLFACSP [P1G] | 0.828
PPHYRRLLFACSP [R4Y] | 0.936
PPHRRRCLFACSP [L7C] | 0.865
PPARRRLLFACSP [H3A] | 2.06
MPHRRRLLFACSP [P1M] | 1.1
PPHRRRALFACSP [L7A] | 0.892
RPHRRRLLFACSP [P1R] | 1.13
PPHRRRRLFACSP [L7R] | 0.753
PPHRRFLLFACSP [R6F] | 0.281
PPGRRRLLFACSP [H3G] | 1.25
PPHRRRELFACSP [L7E] | 0.491
PPHRRRLLFACYP [S12Y] | 1.18
PPHRRWLLFACSP [R6W] | 1.85
PPHRRRLLFSCSP [A10S] | 1.64
PPHRRRLLFMCSP [A10M] | 1.94
PPKRRRLLFACSP [H3K] | 0.656
PPHRRRLLLACSP [F9L] | 0.346
PPHRRRLLFDCSP [A10D] | 4.17

Set 4 — technique: aptamer microarray, sandwich; molecule type: DNA with 2'F-ANA; medium: in vitro; tested at: 200 nM; together with: Cy3 exosite-II aptamer, 400 nM; direction: higher = stronger binding; strand: GGTTGGTGTGGTTGG
Target: Prothrombin, mature alpha-thrombin (F2, Homo sapiens, UniProt P00734)
Notes: whole 15-mer aptamer, many near background
Modification | mean fluorescence intensity [a.u.]
2'F-ANA at 2 3 4 9 10 11 12 15 | 267
2'F-ANA at 1 2 3 7 8 9 12 | 453
2'F-ANA at 2 3 7 8 | 1050
2'F-ANA at 1 2 3 6 7 8 9 10 11 12 13 | 80.9
2'F-ANA at 1 2 5 6 7 10 11 14 | 51.5
2'F-ANA at 1 3 6 7 8 10 12 13 | 149
2'F-ANA at 1 3 4 10 11 15 | 62.2
2'F-ANA at 1 4 5 6 7 8 9 10 15 | 48.2
2'F-ANA at 1 3 4 7 8 9 11 12 | 349
2'F-ANA at 2 4 5 6 7 8 11 12 15 | 108
2'F-ANA at 1 4 5 7 9 10 12 13 | 48
2'F-ANA at 1 4 6 7 9 13 | 72.7
2'F-ANA at 3 7 10 13 15 | 576
2'F-ANA at 1 2 3 5 14 | 48
2'F-ANA at 4 6 9 10 | 82.2
2'F-ANA at 1 3 4 5 8 12 13 | 132
2'F-ANA at 2 3 7 10 11 13 14 15 | 289
